Published values collected from several papers.
Each line is one published result; not all experiments were run side by side.
Target: Tyrosine-protein kinase Fes/Fps (FES, Homo sapiens, UniProt P07332)

Structure (SMILES)	test	setting	scale	measurement	value
NC(=O)C[C@H]1CCc2sc3ncnc(O[C@H]4CC[C@H](N5CCOCC5)CC4)c3c21	enzyme activity, inhibitor	10 µM		inhibition	11%
C=CC(=O)Nc1cccc(-c2cnc3[nH]cc(C(=O)NC(C)(C)C)c3n2)c1	kinase activity	0.1 µM		inhibition	8%
Cc1cnc2nc1Nc1cccc(c1)COC/C=C/COCc1cc(ccc1OCCN1CCOCC1)N2	binding	0.1 µM		remaining binding	97%
O=C(Cc1ccc(OCc2ccccc2)cc1)NC1(C(=O)O)CCN(C(=O)c2ccc(-c3cccc(Cl)c3)cc2)CC1	enzyme activity, inhibitor	10 µM		activity vs control	130%
Cc1cccc(O[C@H]2CCC[C@@H](C(C)CNCc3ccncc3)C2)c1 (relative stereo)	enzyme activity, inhibitor	10 µM		inhibition	-3%
C=CC(=O)N1CCCC(n2c(=O)c3ncccc3n(Cc3ccc(Oc4ccccc4)cc3)c2=O)C1 (stereo not drawn)	cell-free assay, competition with immobilised ligand	1 µM		remaining binding	83%
CCn1cc(C(=O)O)c(=O)c2c(N)c(F)c(NC3CCCCC3)cc21	kinase activity	0.1 µM, together with: ATP at Km		inhibition	3.8%
CN1CCN(Cc2ccc(-c3ccc(CO[C@H]4CCC[C@@H]4NC(=O)c4cc(-c5cnn(C)c5)cnc4N)cc3)cc2)CC1	enzyme activity, inhibitor	0.1 µM		inhibition	2%
COc1ccc(NC(=O)Nc2ccc3c(c2)C(=O)N(C(C)CO)CC(C)C(CN(C)Cc2ccc4c(c2)OCO4)O3)cc1 (stereo not drawn)	kinase activity	0.03 µM	relative to: control	remaining activity	96%
CNC1C[S+]2CC[S+]3CC[S+](C1)[Ru-4]321([N]=C=S)[n]2c3ccc(OC)cc3c3c4c(c5cc(F)c[n+]1c5c32)C(=O)NC4=O (stereo not drawn)	KinomeScan	0.1 µM	relative to: untreated	remaining binding	95%
CNC(=O)C1CCN(c2cc(C)c(F)cc2NC(=O)c2ccc(-c3cc(O)ccc3C)c(C)c2)CC1	binding, competition with immobilised ligand	1 µM		remaining binding	100%
CCN1CCN(Cc2ccc(NC(=O)c3ccc(C)c(NC(=O)c4cncc(-c5cccs5)c4)c3)cc2C(F)(F)F)CC1	binding, competition with immobilised ligand	1 µM		remaining binding	22%
CC(C)=CC1OC(C)(C)C2C=C3C(=O)C(Cl)=CC(O)C3C3C(O)C4OC4C(=O)C132 (stereo not drawn)	cell-free assay, competition with immobilised ligand	10 µM		remaining binding	75%
C=CC(=O)N1Cc2nc(-c3cc(-c4cc(Cl)cnc4Cl)c(F)cc3F)n(-c3ccncn3)c2C1	cell-free assay, inhibitor	1 µM		inhibition	6%
COc1c(Cl)cccc1Nc1c(-c2ccncc2C#C[C@@]2(C)CCCN2C(=O)/C=C/CN(C)C)[nH]c2c1C(=O)NCC2	cell-free assay, competition with immobilised ligand	3 µM		remaining binding	94%

A few entries again:
Structure (SMILES)	test	setting	scale	measurement	value
CCN1CCN(Cc2ccc(NC(=O)c3ccc(C)c(NC(=O)c4cncc(-c5cccs5)c4)c3)cc2C(F)(F)F)CC1	binding, competition with immobilised ligand	1 µM		remaining binding	22%
CC(C)=CC1OC(C)(C)C2C=C3C(=O)C(Cl)=CC(O)C3C3C(O)C4OC4C(=O)C132 (stereo not drawn)	cell-free assay, competition with immobilised ligand	10 µM		remaining binding	75%
